Experimental data from different studies.
“And” joins repeats or separate records; there may be more than shown. ± gives the spread as reported.
Chain of UniProt P29597 (whole entry, looked up): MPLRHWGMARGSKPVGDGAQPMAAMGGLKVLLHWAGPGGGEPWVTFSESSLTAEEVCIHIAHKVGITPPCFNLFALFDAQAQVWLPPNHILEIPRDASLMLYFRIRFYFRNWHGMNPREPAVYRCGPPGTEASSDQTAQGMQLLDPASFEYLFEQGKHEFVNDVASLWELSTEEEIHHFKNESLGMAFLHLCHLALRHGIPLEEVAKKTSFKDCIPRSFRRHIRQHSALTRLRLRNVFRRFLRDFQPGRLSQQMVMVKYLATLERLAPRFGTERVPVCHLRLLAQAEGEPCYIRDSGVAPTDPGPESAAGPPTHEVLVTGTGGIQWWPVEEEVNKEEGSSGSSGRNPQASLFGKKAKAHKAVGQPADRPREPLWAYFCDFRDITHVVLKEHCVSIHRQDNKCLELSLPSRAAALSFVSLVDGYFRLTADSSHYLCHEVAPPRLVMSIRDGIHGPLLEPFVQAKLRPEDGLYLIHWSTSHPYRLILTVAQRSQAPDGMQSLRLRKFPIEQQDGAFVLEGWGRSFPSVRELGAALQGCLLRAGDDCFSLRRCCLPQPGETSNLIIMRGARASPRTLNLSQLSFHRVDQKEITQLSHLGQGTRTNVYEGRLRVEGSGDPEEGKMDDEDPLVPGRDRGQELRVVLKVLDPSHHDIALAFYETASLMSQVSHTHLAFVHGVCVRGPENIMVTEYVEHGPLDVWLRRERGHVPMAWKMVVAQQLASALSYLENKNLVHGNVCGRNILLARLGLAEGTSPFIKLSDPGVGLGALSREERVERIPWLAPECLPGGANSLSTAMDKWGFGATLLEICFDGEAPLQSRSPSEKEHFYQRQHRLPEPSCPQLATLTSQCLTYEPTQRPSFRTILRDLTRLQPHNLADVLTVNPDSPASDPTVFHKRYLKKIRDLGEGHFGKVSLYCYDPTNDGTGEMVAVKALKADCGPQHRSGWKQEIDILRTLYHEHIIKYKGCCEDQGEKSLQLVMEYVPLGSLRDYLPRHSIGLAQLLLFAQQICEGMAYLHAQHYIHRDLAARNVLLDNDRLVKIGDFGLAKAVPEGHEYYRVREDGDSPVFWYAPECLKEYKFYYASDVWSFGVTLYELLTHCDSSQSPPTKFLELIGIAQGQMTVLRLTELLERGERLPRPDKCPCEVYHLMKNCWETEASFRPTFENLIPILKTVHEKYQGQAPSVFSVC

Compound	tested on	assay	system	conditions	scale	measurement	result
CCCC[C@H](NC(=O)COCCOCCNC(=O)CN1CCN(CC(=O)O)CCN(CC(=O)O)CC1)C(=O)N[C@H]1CC(=O)NCCCC[C@@H](C(N)=O)NC(=O)[C@H](Cc2c[nH]c3ccccc23)NC(=O)[C@H](CCCNC(=N)N)NC(=O)[C@@H](Cc2ccccc2)NC(=O)[C@H](Cc2c[nH]cn2)NC1=O [technetium-99m labelled]	–	–	C57 mouse, intestine	intravenous, 0.037 MBq, 0.5 h	–	tissue uptake	4.49 ± 1.09 %ID
Cn1ncc2cc(-c3cncc(Cl)c3N3CCC4(CCNC4=O)CC3)ccc21	LS174T	gene expression, microarray, refers to: EXD3 mRNA	–	concentration not given, 24 h	baseline: untreated cells	log2 fold change	2.23
Cc1nn(-c2cccc(N)c2)c(=O)c2cnc(Nc3ccc(N4CCNCC4)cc3)nc12	TYK2 (Homo sapiens, UniProt P29597)	kinase activity, inhibitor, SelectScreen kinase profiling	–	–	–	IC50	> 10000 nM
CC(C)C[C@@H](NC(=O)[C@@H](CC(C)C)NC(=O)[C@@H](CC(=O)O)NC(=O)[C@@H](CC(C)C)NC(=O)[C@@H](CC(C)C)NC(=O)[C@@H](CC(C)C)NC(=O)[C@H](NC(=O)[C@@H](CC(=O)O)NC(=O)[C@H](NC(=O)[C@H]1CCCN1C(=O)[C@@H](Cc1ccccc1)NC(=O)[C@@H](CC(C)C)NC(=O)[C@@H](CC(C)C)NC(=O)[C@@H](CC(=O)O)NC(=O)[C@@H](CC(C)C)NC(=O)[C@@H](Cc1ccc(O)cc1)NC(=O)[C@@H](C)NC(=O)[C@@H](CCCNC(=N)N)NC(=O)[C@@H](Cc1c[nH]c2ccccc12)NC(=O)[C@H]1CCCN1C(=O)[C@@H](CC(N)=O)NC(=O)[C@@H](CCC(N)=O)NC(=O)[C@@H](CC(=O)O)NC(=O)[C@@H](CC(=O)O)NC(=O)[C@@H](CSC1CC(=O)N(CCNC(=O)CN2CCN(CC(=O)O)CCN(CC(=O)O)CC2)C1=O)NC(=O)[C@@H](C)N)[C@H](C)O)[C@H](C)O)C(=O)N[C@H](Cc1c[nH]c2ccccc12)C(=O)O (stereo partly drawn) [fluorine-18 labelled]	–	–	male nude mice, LNCaP xenograft, blood	intravenous, 1 h	–	tissue uptake	20 %ID/g
CC1Cc2ccccc2N1C(=O)CN1CCN(Cc2ccccc2)CC1 (stereo not drawn)	–	hole-board test	PC7-WT mice	1 mg/kg	baseline: vehicle	head-pokes	increased
COc1cc2c(cc1OC)-c1cc3ccc(OC)c(OC)c3c[n+]1CC2.[Cl][Fe-]([Cl])([Cl])[Cl]	–	–	–	1.0 mg/mL, 30 min, 25 °C	–	DPPH scavenging	33.4%
CC(C)c1cnc(-c2cc(Cl)ccc2F)cc1Nc1ccncc1C(=O)NC(CO)CO	–	–	mice, MC-38 tumour, tumour	10 mg/kg twice daily, 96 h, 4 day, then holiday, ×7	baseline: CD45+	CD8+ T cells	7.64%
Cc1cc(OCCOCCN(C)C)cc(C(C)C)c1	–	locomotor activity in dark	zebrafish larvae, 7 dpf	10 µM, minute 3, dark phase	–	larval motion	1.3 ± 0.3 pixels/frame
Cc1cn(CC(=O)N(CC(=O)N[C@H]2CCC[C@@H]2N(CC(=O)N[C@H]2COC[C@@H]2N(CC(=O)N[C@H]2COC[C@@H]2N(CC(=O)N[C@H]2COC[C@@H]2N(CC(=O)NCCOCCOCC(N)=O)C(=O)Cn2cnc3c(N)ncnc32)C(=O)Cn2cc(C)c(=O)[nH]c2=O)C(=O)Cn2cnc3c(N)ncnc32)C(=O)Cn2cnc3c(=O)[nH]c(N)nc32)[C@H]2CCC[C@@H]2NC(=O)CN(C(=O)Cn2cnc3c(=O)[nH]c(N)nc32)[C@H]2CCC[C@@H]2NC(=O)CN(C(=O)Cn2cc(C)c(=O)[nH]c2=O)[C@H]2COC[C@@H]2NC(=O)CN(C(=O)Cn2cnc3c(N)ncnc32)[C@H]2COC[C@@H]2NC(=O)CN(C(=O)Cn2cnc3c(=O)[nH]c(N)nc32)[C@H]2COC[C@@H]2N)c(=O)[nH]c1=O	–	UV melting	RNA duplex with T·G mismatch	pH 7.2, 1 µM each strand	–	Tm	66.1 °C
Cc1ncsc1-c1ccc(C(C)NC(=O)C2CC(O)CN2C(=O)C(NC(=O)CCCCCCCCCCN2CCCC(Nc3ncc(Cl)c(Nc4ccccc4S(=O)(=O)C(C)C)n3)C2)C(C)(C)C)cc1 (stereo not drawn)	22Rv1	RNA-seq, refers to: ZCCHC2 mRNA	–	concentration not given	baseline: DMSO	log2 fold change	-1.65
Cc1ccc(C)c(OCC(O)CN2CCN(c3cc(Cl)ccc3C)CC2)c1 (stereo not drawn)	–	–	zebrafish larvae, 7 dpf	10 µM, minute 2	–	larval motion	1.8 ± 0.5 pixels/frame
C=CC(=O)Nc1cccc(Cn2ncc3cnc(Nc4cnn(CCOC)c4)nc32)c1	DRAK1 human	binding, KINOMEscan	–	100 nM	lower = stronger binding	percent of control	2%
CC(C)(C)NCC(SS(=O)(=O)O)c1ccccc1 (stereo not drawn)	–	–	Swiss Webster mice, Schistosoma mansoni-infected	100 mg/kg x 2 doses from day 42 post-infection, perfusion day 56 post-infection	baseline: vehicle	spleen weight decrease	36%
C=C1CC[C@H](OCCCNC(=O)CCOCCOCCOCCOCCOCCOCCOCCOCCOCCOCCOCCOCCOCCOCCOCCOCCOCCOCCOCCOCCOCCOCCOCCOCCOCCOCCOCCOCCOCCOCCOCCOCCOCCOCCOCCOCCNC(=O)CCN2C(=O)CC(SC[C@H](NC(=O)[C@H](Cc3ccccc3)NC(=O)[C@H](CC(N)=O)NC(=O)[C@H](Cc3c[nH]cn3)NC(=O)[C@@H](NC(=O)[C@H](CC(=O)O)NC(=O)[C@H](CCC(N)=O)NC(=O)[C@H](CC(C)C)NC(=O)[C@H](CCCCN)NC(=O)[C@H](CCCCN)NC(=O)[C@H](CCCNC(=N)N)NC(=O)[C@H](CC(C)C)NC(=O)[C@H](Cc3c[nH]c4ccccc34)NC(=O)[C@H](CCC(=O)O)NC(=O)[C@@H](NC(=O)[C@H](CCCNC(=N)N)NC(=O)[C@H](CCC(=O)O)NC(=O)[C@H](CCSC)NC(=O)[C@H](CO)NC(=O)[C@H](CC(N)=O)NC(=O)[C@H](CC(C)C)NC(=O)[C@H](Cc3c[nH]cn3)NC(=O)[C@H](CCCCN)NC(=O)CNC(=O)[C@H](CC(C)C)NC(=O)[C@H](CC(N)=O)NC(=O)[C@H](Cc3c[nH]cn3)NC(=O)[C@H](CCSC)NC(=O)[C@H](CC(C)C)NC(=O)[C@H](CCC(N)=O)NC(=O)[C@@H](NC(=O)[C@H](CCC(=O)O)NC(=O)[C@H](CO)NC(=O)[C@@H](NC(=O)[C@@H](N)CO)C(C)C)[C@@H](C)CC)C(C)C)C(C)C)C(=O)O)C2=O)C/C1=C/C=C1\CCC[C@]2(C)[C@@H]([C@H](C)CCCC(C)(C)O)CC[C@@H]12 (stereo partly drawn)	–	–	male Sprague-Dawley rat, plasma	subcutaneous, 30 µg/kg, single dose	–	Cmax	13.9 ng/mL
CNS(=O)(=O)Nc1nccc(Cc2c(C)c3ccc(Oc4ncccc4F)cc3oc2=O)c1F	OVK18	cell viability	–	7 days	–	IC50	10.4 nM
Nc1ncc(-c2cc(-c3cnn(CC(F)(F)F)c3)ncc2F)nc1C(=O)NC1CNCC(F)C1 (stereo not drawn)	RET	KINOMEscan	–	1 µM	baseline: DMSO control	remaining binding	37%
O=C1NC2(CC2)COc2ncc(F)cc2[C@H]2COCCN2c2ccn3ncc1c3n2	CHL cells	chromosomal aberration test	–	20 µg/mL, 24 h, without S9 mix	baseline: solvent control	relative population doubling	27.6%
CCCCCc1ccc(S(=O)(=O)N2CC2C(=O)OC)cc1 (stereo not drawn)	–	–	mouse, Lewis lung carcinoma	intraperitoneal, 5 mg/kg, 16 doses, day 16	–	tumour volume	626 mm3

Compound	tested on	assay	system	conditions	scale	measurement	result
CN(C)C(=O)c1ccnc(N2Cc3cn(Cc4ccc(F)cc4F)nc3C2)n1	–	–	mouse, hippocampal slice, Schaffer collaterals	dose not given, interstimulus interval 400	baseline: second over first response	paired-pulse ratio	1.56 and 1.25 and 1.09 and 1.1 and 1.46 and 1.24 and 1.18
COc1cc(N2CCN(C(=O)C3CCCN3)CC2)ccc1Nc1ncc(Cl)c(Nc2ccccc2P(C)(C)=O)n1 (stereo not drawn)	–	–	nude mice, NCI-H3122 xenograft	oral, 25 mg/kg every two days, day 1	–	tumour volume	60.8 mm3 and 48.7 mm3 and 79.6 mm3 and 17.9 mm3 and 63 mm3
CN1CCC[C@]1(C)/C=C/S(=O)(=O)NC(=O)Nc1c2c(cc3c1CCC3)CCC2	–	–	human, whole blood ex vivo	12.5 mg twice daily, day 1, 3 h, multiple ascending dose, with: LPS and ATP	–	IL-1β inhibition	98.4%
CC(=O)[O-].O.O.O.O.[Mn+2].[O-]c1ccc(Br)cc1C=NCCN1CCOCC1	–	superoxide scavenging	–	160 µM	–	inhibition	29.3%
COc1cc(O)ccc1CCC(c1ccc(O)cc1)c1cc2c(c(C)c1O)OC(c1ccc(O)cc1)CC2 (mixture of isomers)	–	–	human blood	0.3 µM, with: A23187	–	14-HDHA level	529 ± 103 pg/mL
CCC(=O)N[C@@H](C)C(=O)OCC(=O)N[C@@H](C)C(=O)O	–	–	water	pH 6, 65 °C	–	chain scission rate constant	0.0235 h⁻¹
O=C(CCN1CCN(C/C=C/c2ccccc2)CC1)Nc1ccccc1	–	–	zebrafish larvae, 7 dpf	10 µM, minute 2	–	larval motion	10 ± 1.7 pixels/frame
Cc1cn(CC(=O)N(CC(=O)N[C@H]2COC[C@@H]2N(CC(=O)NCCOCCOCC(N)=O)C(=O)Cn2cnc3c(N)ncnc32)[C@H]2COC[C@@H]2NC(=O)CN(C(=O)Cn2cnc3c(N)ncnc32)[C@H]2COC[C@@H]2NC(=O)CN(C(=O)Cn2cnc3c(=O)[nH]c(N)nc32)[C@H]2COC[C@@H]2NC(=O)CN(C(=O)Cn2cc(C)c(=O)[nH]c2=O)[C@H]2COC[C@@H]2NC(=O)CN(C(=O)Cn2cnc3c(=O)[nH]c(N)nc32)[C@H]2COC[C@@H]2NC(=O)CN(C(=O)Cn2cc(C)c(=O)[nH]c2=O)[C@H]2COC[C@@H]2NC(=O)CN(C(=O)Cn2cnc3c(N)ncnc32)[C@H]2COC[C@@H]2NC(=O)CN(C(=O)Cn2cnc3c(=O)[nH]c(N)nc32)[C@H]2COC[C@@H]2N)c(=O)[nH]c1=O	–	UV melting	DNA duplex with T·G mismatch	pH 7.2, 1 µM each strand	–	Tm	55.6 °C
Cc1cc(C(C)(C)C)ccc1OCCOCCN(C)C	–	–	zebrafish larvae, 7 dpf	10 µM, minute 4	–	larval motion	13.8 ± 1.2 pixels/frame
CN1CCCNC(=O)c2cccc(c2)C(=O)NCCCN(C)CCCNc2cccc3c2C(=O)c2cccc(c2C3=O)NCCC1	–	–	SAS xenograft, KSN/Slc nude mice	dose not given, 96 h (day 4), group mean	–	tumour volume	160 mm3
Cc1cc(C)cc(NC(=O)CCN2CCCCCC2)c1	–	–	zebrafish larvae, 7 dpf	10 µM, minute 4	–	larval motion	22.3 ± 2.2 pixels/frame
C=C(NC(=O)c1csc(-c2nc3c(cc2O)-c2nc(cs2)C(=O)NC(C(C)O)C(=O)NC(=C(C)OC)c2nc(cs2)C(=O)NC2c4nc(cs4)C(=O)NC(COC(=O)c4c5c6c(cccc6n4O)COC(=O)C(OC4CC(C)(O)C(N(C)C)C(C)O4)C2OC5)c2nc-3cs2)n1)C(N)=O (stereo not drawn)	–	–	female cynomolgus monkey, plasma	intravenous, 9 mg/kg, single dose, infusion	–	AUC(0-t)	42400 ng·h/mL
CN(C)CCOCCOc1ccc(Cl)c(Cl)c1	–	–	zebrafish larvae, 7 dpf	10 µM, minute 4	–	larval motion	3.8 ± 1.5 pixels/frame
Cc1cccc(C)c1CNc1cc(C(=O)N2CCC2)cn2c(C)c(C)nc12	–	basal gastric acid secretion	pylorus-ligated rat	oral, 2 mg/kg	–	total acid output	64.3 ± 8.5 µEq/3 h
COc1ccc(N2CCN(CC(O)COc3ccc4ccccc4c3)CC2)cc1 (stereo not drawn)	–	–	zebrafish larvae, 7 dpf	10 µM, minute 4	–	larval motion	11.3 ± 1.6 pixels/frame
COC1CN([C@H]2CC[C@H]([C@@]3(C)Oc4c(Cl)cc(C(=O)NCc5c(SC)cc(C)[nH]c5=O)c(C)c4O3)CC2)C1	–	RNA-seq, refers to: BMI1 mouse homolog	mouse, HT-1376 xenograft, whole blood	dose not given	baseline: vehicle	log2 fold change	0.986
CCCC[C@H](NC(=O)CCCCCCCNC(=O)CN1CCN(CC(=O)O)CCN(CC(=O)O)CC1)C(=O)N[C@H]1CC(=O)NCCCC[C@@H](C(N)=O)NC(=O)[C@H](Cc2c[nH]c3ccccc23)NC(=O)[C@H](CCCNC(=N)N)NC(=O)[C@@H](Cc2ccccc2)NC(=O)[C@H](Cc2c[nH]cn2)NC1=O [technetium-99m labelled]	–	–	C57 mouse, bone	intravenous, 0.037 MBq, 4 h	–	tissue uptake	0.02 %ID/g
O=C(CCN1CCN(C/C=C/c2ccccc2)CC1)Nc1ccccc1F	–	locomotor activity in dark	zebrafish larvae, 7 dpf	10 µM, minute 1, dark phase	–	larval motion	2.7 ± 1.3 pixels/frame

Excerpt of the above:
Compound	tested on	assay	system	conditions	scale	measurement	result
COc1cc(O)ccc1CCC(c1ccc(O)cc1)c1cc2c(c(C)c1O)OC(c1ccc(O)cc1)CC2 (mixture of isomers)	–	–	human blood	0.3 µM, with: A23187	–	14-HDHA level	529 ± 103 pg/mL
COc1cc2c(cc1OC)-c1cc3ccc(OC)c(OC)c3c[n+]1CC2.[Cl][Fe-]([Cl])([Cl])[Cl]	–	–	–	1.0 mg/mL, 30 min, 25 °C	–	DPPH scavenging	33.4%
C=C(NC(=O)c1csc(-c2nc3c(cc2O)-c2nc(cs2)C(=O)NC(C(C)O)C(=O)NC(=C(C)OC)c2nc(cs2)C(=O)NC2c4nc(cs4)C(=O)NC(COC(=O)c4c5c6c(cccc6n4O)COC(=O)C(OC4CC(C)(O)C(N(C)C)C(C)O4)C2OC5)c2nc-3cs2)n1)C(N)=O (stereo not drawn)	–	–	female cynomolgus monkey, plasma	intravenous, 9 mg/kg, single dose, infusion	–	AUC(0-t)	42400 ng·h/mL
CCC(=O)N[C@@H](C)C(=O)OCC(=O)N[C@@H](C)C(=O)O	–	–	water	pH 6, 65 °C	–	chain scission rate constant	0.0235 h⁻¹
CN(C)CCOCCOc1ccc(Cl)c(Cl)c1	–	–	zebrafish larvae, 7 dpf	10 µM, minute 4	–	larval motion	3.8 ± 1.5 pixels/frame
COc1ccc(N2CCN(CC(O)COc3ccc4ccccc4c3)CC2)cc1 (stereo not drawn)	–	–	zebrafish larvae, 7 dpf	10 µM, minute 4	–	larval motion	11.3 ± 1.6 pixels/frame
